Experimental data from different studies.
Protocols differ between the studies behind these lines. ± marks the error that the study gave.

O=c1c(OCc2ccccc2)c(-c2ccc(Cl)cc2)oc2ccccc12 — serum LDL cholesterol (diabetic rat; 5 mg/kg, 28 days, p-nitrophenyl β-glucoside induced): 125 ± 3.91 mg/dL
CCCC[C@H](NC(=O)[C@@H](NC(=O)[C@H](CC(=O)O)NC(=O)[C@H](CCC(N)=O)NC(=O)[C@H](CC(C)C)NC(=O)[C@H](CC(C)C)NC(=O)[C@H](CCCN)NC(=O)[C@H](CCCNC(=N)N)NC(=O)[C@H](C)NC(=O)[C@H](CO)NC(=O)[C@H](CC(C)C)NC(=O)[C@H](CCC(N)=O)NC(=O)[C@H](CC)NC(=O)[C@H](CC(C)C)NC(=O)[C@@H](NC(=O)[C@H](CCCN)NC(=O)[C@H](CCCNC(=N)N)NC(=O)[C@H](Cc1ccc(O)cc1)NC(=O)[C@H](CO)NC(=O)[C@H](CCC(N)=O)NC(=O)[C@@H](NC(=O)[C@H](Cc1c(F)c(F)c(F)c(F)c1F)NC(=O)[C@@H](NC(=O)[C@H](C)NC(=O)[C@H](CC(=O)O)NC(=O)[C@@H](C)NC(=O)[C@H](Cc1ccc(O)cc1)NC)[C@@H](C)CC)[C@@H](C)O)C(C)C)[C@@H](C)CC)C(=O)N[C@@H](CC(=O)O)C(=O)N[C@@H](CCCNC(=N)N)C(=O)NC — serum GH level (GH release, ELISA; male Sprague-Dawley rat, anaesthetised, serum; subcutaneous, 3 µg/kg, 30 min): 151 ± 28.5 ng/mL
Cc1cc(O)c(C=O)c2c1C(=O)Oc1c(CO)c(O)c3c(c1O2)C(O)OC3=O (stereo not shown) — serum insulin (streptozotocin-induced diabetic male rats, serum; 10 mg/kg, 9 weeks): 7.41 ± 0.2 mIU/L
COc1ccc(C2CC(c3ccc(C)cc3)=Nc3ccccc3S2)cc1 (stereo not shown) — serum creatinine (Wistar rat, streptozotocin-induced diabetes, serum; 20 mg/kg, 28 days): 0.68 ± 0.29 mg/dL
CC(CCC(=O)NCc1ccc(C(=O)NO)cc1)C1CCC2C3C(O)CC4CC(O)CCC4(C)C3CCC12C (stereo not shown) — serum urea (PCK rats; oral gavage, 15 mg/kg/day, 5 months; baseline: untreated): decreased
COc1ccc(C2CC(c3ccc(C)cc3)=Nc3ccccc3S2)cc1OC (stereo not shown) — serum creatinine (Wistar rat, streptozotocin-induced diabetes, serum; 10 mg/kg, 28 days): 0.71 ± 0.25 mg/dL
Cc1ccc(-c2oc3ccccc3c(=O)c2OCc2ccccc2)cc1 — serum total cholesterol (diabetic rat; 7.5 mg/kg, 28 days, p-nitrophenyl β-glucoside induced): 138 ± 4.72 mg/dL
CCCC[C@H](NC(=O)[C@@H](NC(=O)[C@H](CC(=O)O)NC(=O)[C@H](CCC(N)=O)NC(=O)[C@H](CC(C)C)NC(=O)[C@H](CC(C)C)NC(=O)[C@H](CCCN)NC(=O)[C@H](CCCNC(=N)N)NC(=O)[C@H](C)NC(=O)[C@H](CO)NC(=O)[C@H](CC(C)C)NC(=O)[C@H](CCC(N)=O)NC(=O)[C@H](CC)NC(=O)[C@H](CC(C)C)NC(=O)[C@@H](NC(=O)[C@H](CCCN)NC(=O)[C@H](CCCNC(=N)N)NC(=O)[C@H](Cc1ccc(O)cc1)NC(=O)[C@H](CO)NC(=O)[C@H](CC(N)=O)NC(=O)[C@@H](NC(=O)[C@H](Cc1ccccc1)NC(=O)[C@@H](NC(=O)[C@H](C)NC(=O)[C@H](CC(=O)O)NC(=O)[C@@H](CC)NC(=O)CCc1ccc(O)cc1)[C@@H](C)CC)[C@@H](C)O)C(C)C)[C@@H](C)CC)C(=O)N[C@@H](CO)C(=O)N[C@@H](CCCNC(=N)N)C(=O)NCCCC(N)=O — serum GH level (GH release, ELISA; male Sprague-Dawley rat, anaesthetised, serum; subcutaneous, 3 µg/kg, 0 min): 25.4 ± 4.1 ng/mL
O=c1c(OCc2ccccc2)c(-c2cccc([N+](=O)[O-])c2)oc2ccccc12 — serum total cholesterol (diabetic rat; 7.5 mg/kg, 28 days, p-nitrophenyl β-glucoside induced): 148 ± 4.77 mg/dL
CCCC[C@H](NC(=O)[C@@H](NC(=O)[C@H](CC(=O)O)NC(=O)[C@H](CCC(N)=O)NC(=O)[C@H](CC(C)C)NC(=O)[C@H](CC(C)C)NC(=O)[C@H](CCCN)NC(=O)[C@H](CCCNC(=N)N)NC(=O)[C@H](C)NC(=O)[C@H](CO)NC(=O)[C@H](CC(C)C)NC(=O)[C@H](CCC(N)=O)NC(=O)[C@H](CC)NC(=O)[C@H](CC(C)C)NC(=O)[C@@H](NC(=O)[C@H](CCCN)NC(=O)[C@H](CCCNC(=N)N)NC(=O)[C@H](Cc1ccc(O)cc1)NC(=O)[C@H](CO)NC(=O)[C@H](CCC(N)=O)NC(=O)[C@@H](NC(=O)[C@H](Cc1ccccc1)NC(=O)[C@@H](NC(=O)[C@H](C)NC(=O)[C@H](CC(=O)O)NC(=O)[C@@H](C)NC(=O)CCc1ccc(O)cc1)[C@@H](C)CC)[C@@H](C)O)C(C)C)[C@@H](C)CC)C(=O)N[C@@H](CC(=O)O)C(=O)N[C@H](CCCNC(=N)N)C(=O)NC — serum GH level (GH release, ELISA; male Sprague-Dawley rat, anaesthetised, serum; subcutaneous, 3 µg/kg, 30 min): 204 ± 23.7 ng/mL

Repeated from above:
CCCC[C@H](NC(=O)[C@@H](NC(=O)[C@H](CC(=O)O)NC(=O)[C@H](CCC(N)=O)NC(=O)[C@H](CC(C)C)NC(=O)[C@H](CC(C)C)NC(=O)[C@H](CCCN)NC(=O)[C@H](CCCNC(=N)N)NC(=O)[C@H](C)NC(=O)[C@H](CO)NC(=O)[C@H](CC(C)C)NC(=O)[C@H](CCC(N)=O)NC(=O)[C@H](CC)NC(=O)[C@H](CC(C)C)NC(=O)[C@@H](NC(=O)[C@H](CCCN)NC(=O)[C@H](CCCNC(=N)N)NC(=O)[C@H](Cc1ccc(O)cc1)NC(=O)[C@H](CO)NC(=O)[C@H](CCC(N)=O)NC(=O)[C@@H](NC(=O)[C@H](Cc1c(F)c(F)c(F)c(F)c1F)NC(=O)[C@@H](NC(=O)[C@H](C)NC(=O)[C@H](CC(=O)O)NC(=O)[C@@H](C)NC(=O)[C@H](Cc1ccc(O)cc1)NC)[C@@H](C)CC)[C@@H](C)O)C(C)C)[C@@H](C)CC)C(=O)N[C@@H](CC(=O)O)C(=O)N[C@@H](CCCNC(=N)N)C(=O)NC — serum GH level (GH release, ELISA; male Sprague-Dawley rat, anaesthetised, serum; subcutaneous, 3 µg/kg, 30 min): 151 ± 28.5 ng/mL
